Assay results of several laboratories.
Protocols differ between the studies behind these lines. ± marks the error that the study gave.

Structure (SMILES) | tested on | test | system | conditions | quantity | result
O=C(O)CN1C(=O)C(Cc2ccccc2)NC2(C1=O)C1CC3CC(C1)CC2C3 (stereo not drawn) | Trypanosoma brucei | parasite growth |  | pH 7.4, blood stage | IC50 | 103000 nM
CC[C@H](C)[C@H](NC(=O)[C@H](CCC(N)=O)NC(=O)[C@H](CC(C)C)NC(=O)[C@H](Cc1c[nH]c2ccccc12)NC(=O)[C@H](CC(C)C)NC(=O)[C@@H](NC(=O)[C@H](CCC(N)=O)NC(=O)[C@H](CC(C)C)NC(=O)[C@H](CCCNC(=N)N)NC(=O)[C@H](C)NC(=O)[C@@H](NC(=O)[C@H](CCCCN)NC(=O)[C@@H](N)CCC(N)=O)[C@@H](C)CC)[C@@H](C)O)C(=O)NCC(=O)N[C@H](C(=O)N[C@@H](CC(C)C)C(=O)N[C@@H](CC(C)C)C(N)=O)C(C)C | HIV-1 HXB2 | viral infection, luciferase reporter | TZM-bl |  | IC50 | > 4000 nM
O=C(Oc1cc(OC(=O)c2cc(O)c(O)c(O)c2)c2ccccc2c1)c1cc(O)c(O)c(O)c1 | Human alphaherpesvirus 2 | viral replication, inhibitor, qPCR | Vero |  | IC50 | 3670 nM
CN1CC(=O)N(CC(=O)O)C(=O)C12CCCCCC2 | Trypanosoma brucei | parasite growth |  | pH 7.4, blood stage | IC50 | > 300000 nM
Cn1c2ccc([N+](=O)[O-])cc2c(=O)n1Cc1ccccc1 | Leishmania amazonensis | parasite growth, resazurin |  | promastigote | IC50 | 2010 nM
COC1C=COC2(C)Oc3c(C)c(O)c4c(c3C2=O)C2=NC3(CCN(CC(C)C)CC3)NC2=C(NC(=O)C(C)=CC=CC(C)C(O)C(C)C(O)C(C)C(OC(=O)Nc2cccnn2)C1C)C4=O (stereo not drawn) | Mycobacteroides abscessus | bacterial growth | subsp. abscessus clinical isolate | slow grower | IC50 | 19 nM
COCCn1c2ccc([N+](=O)[O-])cc2c(=O)n1Cc1ccccc1 | Leishmania amazonensis | parasite growth, resazurin |  | promastigote | IC50 | 1710 nM
O=C(O)CN1C(=O)CNC2(CCCCCC2)C1=O | Trypanosoma brucei | parasite growth |  | pH 7.4, blood stage | IC50 | > 400000 nM
CNCc1ccc2c(c1)C[C@H](CNC(=N)N)[C@H]2NC(=O)C(=O)Nc1ccc(Cl)c(F)c1 | HIV-1 | pseudovirus infection, Env pseudovirus neutralisation | TZM-bl, clade G isolate C1_B5 |  | IC50 | 16500 nM
C[n+]1ccc(/C=N/NC(=O)c2cncc(C(=O)N/N=C/c3cc[n+](C)cc3)n2)cc1 | hp2 hairpin duplex DNA | FRET melting |  | 1 µM | ΔTm | -0.3 °C
CCCOC(=O)N1c2cc(CNC)ccc2[C@H](NC(=O)C(=O)Nc2ccc(Cl)c(F)c2)[C@H]1CNC(=N)N | Human immunodeficiency virus 1 | viral infection, Env pseudovirus | TZM-bl, C2101.c01 CRF01_AE |  | IC50 | > 100000 nM
O=c1c2cc([N+](=O)[O-])ccc2n(CCO)n1Cc1ccccc1 | Leishmania amazonensis | parasite growth, resazurin |  | promastigote | IC50 | 1260 nM
COc1ccccc1NC(=O)OC1C(C)C(OC)C=COC2(C)Oc3c(C)c(O)c4c(c3C2=O)C2=NC3(CCN(CC(C)C)CC3)NC2=C(NC(=O)C(C)=CC=CC(C)C(O)C(C)C(O)C1C)C4=O (stereo not drawn) | Mycobacteroides abscessus | intracellular growth, Hill fit | THP-1 derived macrophages, ATCC 19977 |  | IC50 | 12 nM
C[n+]1cc(/C=N/NC(=O)c2ccc3ccc(C(=O)N/N=C/c4cc5ccccc5[n+](C)c4)nc3n2)cc2ccccc21 | MYC parallel G4 DNA | FRET melting |  | 1 µM, DNA 0.2 µM | ΔTm | 8.1 ± 0.3 °C
CC(=O)OCCn1c2ccc([N+](=O)[O-])cc2c(=O)n1Cc1ccccc1 | Leishmania amazonensis | parasite growth, resazurin |  | promastigote | IC50 | 2130 nM

Some of these lines once more:
Structure (SMILES) | tested on | test | system | conditions | quantity | result
C[n+]1ccc(/C=N/NC(=O)c2cncc(C(=O)N/N=C/c3cc[n+](C)cc3)n2)cc1 | hp2 hairpin duplex DNA | FRET melting |  | 1 µM | ΔTm | -0.3 °C
